Experimental data from different studies.
Each numbered part is a random draw from the data of one study; scales do not carry over between parts.

Sample 1
Target: Prothrombin, mature alpha-thrombin (F2, Homo sapiens, UniProt P00734)
Technique: aptamer microarray, sandwich
Form: DNA with 2'F-ANA
Medium: in vitro
Concentration: 200 nM
Setting: whole 15-mer aptamer, many near background
With: Cy3 exosite-II aptamer, 400 nM
Direction: higher = stronger binding
Strand: GGTTGGTGTGGTTGG
| Modification | mean fluorescence intensity |
| --- | --- |
| 2'F-ANA at 2 5 6 10 14 | 49.3 a.u. |
| 2'F-ANA at 5 10 13 14 | 151 a.u. |
| 2'F-ANA at 2 6 7 9 10 11 12 13 14 15 | 90.1 a.u. |
| 2'F-ANA at 1 6 7 9 12 15 | 264 a.u. |
| 2'F-ANA at 4 6 9 10 12 | 109 a.u. |
| 2'F-ANA at 2 4 5 6 9 10 11 12 13 | 65.1 a.u. |
| 2'F-ANA at 5 6 7 8 11 12 13 14 | 47.9 a.u. |
| 2'F-ANA at 1 4 5 6 7 10 11 13 14 15 | 50.5 a.u. |
| 2'F-ANA at 1 3 7 9 14 | 90.6 a.u. |
| 2'F-ANA at 3 4 9 | 791 a.u. |
| 2'F-ANA at 2 3 7 8 11 13 | 771 a.u. |
| 2'F-ANA at 3 5 6 7 11 13 14 15 | 65.1 a.u. |
| 2'F-ANA at 5 7 11 12 13 14 15 | 44.6 a.u. |
| 2'F-ANA at 2 3 4 6 8 9 13 | 325 a.u. |
| 2'F-ANA at 2 4 5 6 7 8 9 10 11 12 13 14 15 | 51.1 a.u. |
| 2'F-ANA at 2 4 7 8 9 12 13 | 404 a.u. |
| 2'F-ANA at 7 8 12 15 | 872 a.u. |
| 2'F-ANA at 2 3 4 6 7 10 13 | 184 a.u. |
| 2'F-ANA at 1 3 5 9 11 12 15 | 98.2 a.u. |
| 2'F-ANA at 3 5 6 8 9 11 12 13 14 | 60.2 a.u. |
| 2'F-ANA at 1 2 3 6 7 9 10 12 13 15 | 96.1 a.u. |
| 2'F-ANA at 3 5 6 8 9 12 13 15 | 151 a.u. |
| 2'F-ANA at 1 2 4 8 9 10 12 13 | 53.8 a.u. |

Sample 2
Target: RNA binding protein fox-1 homolog 2, RRM domain, GST-SBP tag (RBFOX2, Homo sapiens, UniProt O43251-10, residues 100-194)
Technique: RNA Bind-n-Seq
Form: RNA
Medium: in vitro
Concentration: 365 nM
Setting: natural RNA segment, single round, ends assumed
Baseline: no-protein control
Direction: higher = stronger binding
Construct (chain): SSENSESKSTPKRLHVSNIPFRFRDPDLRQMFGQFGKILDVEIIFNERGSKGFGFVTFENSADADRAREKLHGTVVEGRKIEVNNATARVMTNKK
| Strand | RBNS enrichment (R) |
| --- | --- |
| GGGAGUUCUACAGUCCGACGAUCUUGAAUGGCUGCCGUUUUUUCAAAGCAAUAUGAAUUUGAUGAGUUUGUUUUAUGCCAUUAGGUGGCGCCAGAGGUCAGAACAUGUCUAUUUUGAAUUGGAUCGUUACAAAUGGAAUUCUCGGGUGCCAA | 0.601 |
| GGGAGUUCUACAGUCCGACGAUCGGGCAUCUUAGAGUUGAUUGAUGGAAAAAGCAGACAGGAACUGGUGGGAGGUCAAGUGGGGAAGUUGGUGAAUGUGGAAUAACUUACCUUUGUGCUCCACUUAAACCAGAUGGAAUUCUCGGGUGCCAA | 2 |
| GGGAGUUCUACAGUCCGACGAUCCACAGCCCUGACACAGGUGUGGCUACUGGAGGGGCCUUCAUACCUGCGGCCCCAAAGCCCCUGGGCUUGGCUGUUUGAGGCAGAGGUGAUGGACUCCGGGGGCCUGACACUGGAAUUCUCGGGUGCCAA | 0.641 |
| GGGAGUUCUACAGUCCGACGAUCCUUUCUAAGGAGCUGGAUGGCAAGAGCUCUGGCUGAAGAAGCUCAACUCAGCACACACUCCUUCAGCCUGAGAUUUUUCAAAUCUUUGGCAACUGAGAUGGGAUGGAUCCUGGAAUUCUCGGGUGCCAA | 0.244 |
| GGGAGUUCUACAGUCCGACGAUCGCAGUUCCUGCAGAGACAGUGCUGGCUGAGUCUCCGCCUUGCUGGGGCUUGUCCUAGAGGCUCCAGCUCUGGCACAGUGGUUCCUGGCUGCUGCCAUGUCUCAGAUGAGGUGGAAUUCUCGGGUGCCAA | 0.354 |
| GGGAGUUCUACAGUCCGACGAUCCCUCCAGGCGGGGCCCGGAAGUAGUAGUAGUAGUAGUAGUAGUAGUAGUAGUAGUAGUAGUAGUAGUUCCAUGUAGGGGCAGGAUCCUUUGGAAAAGUACCGUAUGUUCCUGGAAUUCUCGGGUGCCAA | 0.547 |
| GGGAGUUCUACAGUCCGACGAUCUAAAUUGUAAGAUUUUUACUGUAUAUUGAAGCUUAGUGUGAUUCAAUAAAUUGCUUGUAAUUUAAAAACUAUUUAAUAUUCAAAAUAAAUAUAGUUAUAUAUUUAUAAUAUGGAAUUCUCGGGUGCCAA | 1.71 |
| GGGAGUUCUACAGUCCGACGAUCCAAAUAAUGAAUCUUCGGGUGUUUCCCUUUAGCUAAGCACAGAUCUACCUUGGUGAUUUGGACCCUGGUUGCUUUGUGUCUAGUUUUCUAGACCCUUCAUCUCUUACUUGUGGAAUUCUCGGGUGCCAA | 0.283 |
| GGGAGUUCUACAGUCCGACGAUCACGGCUGAGCGCAGACGGCUUGUUUUAAAAAGAUGAUGAACAUGACAGUAUUUUGUUUUGCUUUGAUUUGGGGGGGAAGGGUUCAUCUUGCUUUUGGAGGUUGUUUUGGGUGGAAUUCUCGGGUGCCAA | 1.27 |
| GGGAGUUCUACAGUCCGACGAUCUCCUUGCGCAUGUGCACUCGCUCGCAGACUGAUGACCCUGCUUGCUGCAGAUGAAUGGUCAACGCGAGCUAGGUUAGUUAGUGUGAUGUAUAAGGCGCCAUCAUUCCUCAUGGAAUUCUCGGGUGCCAA | 0.657 |
| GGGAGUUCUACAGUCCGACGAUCGCUGUUUGGUAUGUGAGGGUUUCAGUACAAAUGCUGCUGUCUAUUUCUGUGCACUUAACAAUGGAACCCAAACAGAAGAGAAUAAAGCCUUGAUACCAAAAUUGGGAAAGUGGAAUUCUCGGGUGCCAA | 0.592 |
| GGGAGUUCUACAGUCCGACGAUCCCUAGUUCUUCAUAGGGACUCUUAAAAUGCAGGAGAACCAUCCGAAGUCAACUCGGGGGACAUGCAAAAAUAACUAUAUAAGACAUUAAAAGAACAAAGAGUGAAAUAUUUGGAAUUCUCGGGUGCCAA | 0.503 |

Sample 3
Target: Sal-like protein 4, full length isoform B (SALL4, Homo sapiens, UniProt Q9UJQ4-2, residues 1-616)
Technique: universal PBM
Form: double-stranded DNA, one strand shown
Medium: in vitro
Concentration: not given
Setting: 8-mer, flanks averaged, mean of replicates
Direction: higher = stronger binding
Construct (chain): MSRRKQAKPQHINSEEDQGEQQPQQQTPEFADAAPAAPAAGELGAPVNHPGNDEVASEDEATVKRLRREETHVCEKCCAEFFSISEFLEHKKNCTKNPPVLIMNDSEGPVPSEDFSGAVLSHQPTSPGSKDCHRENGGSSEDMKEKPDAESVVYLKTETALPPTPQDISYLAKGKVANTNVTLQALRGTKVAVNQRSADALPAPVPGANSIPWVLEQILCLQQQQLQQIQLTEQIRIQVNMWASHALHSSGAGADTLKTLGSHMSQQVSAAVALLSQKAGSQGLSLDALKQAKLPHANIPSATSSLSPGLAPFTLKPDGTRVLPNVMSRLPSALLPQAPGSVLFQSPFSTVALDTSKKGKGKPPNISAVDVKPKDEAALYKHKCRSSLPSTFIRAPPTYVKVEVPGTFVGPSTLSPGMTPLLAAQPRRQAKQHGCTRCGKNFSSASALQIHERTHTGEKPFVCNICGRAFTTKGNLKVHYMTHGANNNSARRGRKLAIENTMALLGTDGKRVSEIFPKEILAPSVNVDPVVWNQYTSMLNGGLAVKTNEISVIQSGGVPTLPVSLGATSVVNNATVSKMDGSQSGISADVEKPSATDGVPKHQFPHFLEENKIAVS
| Strand | E-score |
| --- | --- |
| GTTCGGGA | -0.203 |
| CCGGGGGA | -0.377 |
| TCGCCCGA | -0.225 |
| ATGATTCA | 0.199 |
| GCTGGCAC | -0.236 |
| CCTGACCG | -0.278 |
| CGAGACTA | 0.0783 |
| CACCGGGC | -0.367 |
| GCCCCTGA | -0.22 |
| CGGTGTGC | -0.223 |
| CTTGGAGC | -0.164 |
| ACTACGTG | -0.163 |
| ATCAGATG | 0.0769 |
| TACAGCAA | 0.0591 |
| CATCAAGC | -0.0984 |
| GGAGTTAC | -0.0422 |
| CCGGAGCG | -0.23 |
| CACGATCC | -0.0296 |
| CCCTGGAG | -0.354 |
| ATAAGCTC | 0.0386 |
| GACTGCAC | -0.15 |

Sample 4
Target: Interferon regulatory factor 3, full length, phosphomimetic (IRF3, Homo sapiens, UniProt Q14653, residues 1-427, S386D/S396D/S398D/S402D/T404D/S405D)
Technique: protein-binding microarray
Form: double-stranded DNA, one strand shown
Medium: in vitro
Concentration: 2540 nM top
Setting: 60-bp whole probe
With: salmon DNA 0.4 mg/ml
Baseline: random background probes
Direction: higher = stronger binding
Shared flanks, not repeated: GCCTAGCAC … GTCTTGATTCGCTTGACGCTGCTG
Residues (chain): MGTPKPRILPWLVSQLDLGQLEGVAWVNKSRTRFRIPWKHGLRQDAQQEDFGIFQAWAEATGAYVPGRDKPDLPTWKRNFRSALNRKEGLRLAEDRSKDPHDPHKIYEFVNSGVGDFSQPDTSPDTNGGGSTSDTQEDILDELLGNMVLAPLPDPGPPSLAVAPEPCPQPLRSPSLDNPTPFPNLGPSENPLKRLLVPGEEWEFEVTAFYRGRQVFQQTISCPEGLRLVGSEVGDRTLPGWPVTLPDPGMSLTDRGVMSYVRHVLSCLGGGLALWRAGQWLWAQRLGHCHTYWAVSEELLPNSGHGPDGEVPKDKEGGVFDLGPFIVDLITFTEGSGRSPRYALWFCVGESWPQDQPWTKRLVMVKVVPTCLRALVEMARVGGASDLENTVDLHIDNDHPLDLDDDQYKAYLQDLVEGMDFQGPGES
| Strand | fitted relative affinity [z-score] |
| --- | --- |
| GACGGTTTCCTTTCCCTGCCGTGCTAG | 10.1 |
| GACAGTATCGGGTATCGGGACGTGCTA | 1.96 |
| CACGGTTTCGGGTTTCGGGACGTGCTA | 5.34 |
| GGCTGTTTGGTTCTGATCCTGTGCTAG | 0.38 |
| GACCATTTCGGGACTGGAGACGTGCTA | 2.22 |
| GACGGAATCCTTATCCTGACGTGCTAG | 2.24 |
| GACGATTACAGACTGGAGACGTGCTAG | 0.0168 |
| TTAGGTTTCCCTATCCTTTAGTGCTAG | 7.14 |
| GACGAATTGGGGTATCGAGACGTGCTA | -0.142 |
| TTAGGTATCCTTCTCCTCTAGTGCTAG | 7.2 |
| GTCGGTCTCGGTATCGGGACGTGCTAG | 2.81 |
| GACGGTATCGGGACTAGGGACGTGCTA | 1.78 |
| GCCGATTTCAGTTCCGAGACGTGCTAG | 3.55 |
| TTAGGTCTCGGACTGGGTTAGTGCTAG | -0.245 |
| CCACTTTTATTTTCAGTATTGTGCTAG | 2.97 |
| GACGGACTGCTTATCCTGTCGTGCTAG | 0.0795 |
| TTAGAATTCAGTTTCGATTAGTGCTAG | 5.09 |
| TTAGAGTTCAGTCTCGATTAGTGCTAG | 0.417 |
| GACGGGATCGGTTTCGGGACGTGCTAG | 4.68 |
| TCAGCTTTCCTTTATGTACTGTGCTAG | 4.82 |

For quick reference, copied from above (sample 3):
| Strand | E-score |
| --- | --- |
| CCTGACCG | -0.278 |
| TACAGCAA | 0.0591 |
| CCCTGGAG | -0.354 |
| GCTGGCAC | -0.236 |
| CCGGAGCG | -0.23 |
| CGGTGTGC | -0.223 |
| CCGGGGGA | -0.377 |
| CTTGGAGC | -0.164 |
